Assay results of several laboratories.
Compare with care: the assays were run in different laboratories. ± marks the error that the study gave. ≈ marks a conversion by molar mass, not a printed value.

| Structure (SMILES) | tested on | test | system | conditions | scale | quantity | result |
| --- | --- | --- | --- | --- | --- | --- | --- |
| Nc1ncnc2c1ncn2CCOCP(=O)(O)O | herpes simplex virus 2 | cytopathic effect | HEL, clinical isolate PB |  |  | EC50 | 5.2 ± 3.2 µg/mL |
| CS/C(S)=N/CCCC[S+](C)[O-] (racemic) |  | RT-PCR, item: Arnt | rat, liver | oral gavage, 200 mg/kg, 96 h, dosed for four days | reference: vehicle | mRNA fold change | 0.586 |
| CC(C)C[C@H](NC(=O)[C@H](CO)NC(=O)[C@H](CCCNC(=N)N)NC(=O)[C@H](CC(=O)O)NC(=O)[C@H](CCC(=O)O)NC(=O)[C@H](C)NC(=O)[C@@H]1CCCN1C(=O)[C@H](C)NC(=O)[C@H](CCC(=O)O)NC(=O)[C@@H]1CCCN1C(=O)[C@@H]1CCCN1)C(N)=O |  | HPLC-EC | F344 rat, normal, substantia nigra | intranasal, 100 µg, 5 days/week, 3 weeks |  | dopamine level | 481 ± 83 ng/g |
| O=c1ccc2ccccc2o1 | CYP2A6 human | 7-hydroxylation, substrate | human liver microsomes | CYP2A6 added 216 pmol/mg, ratio 0.5 |  | Vmax | 38.9 ± 16.2 min⁻¹ |
| Nc1ncnc2c1c(-c1cccnc1)cn2[C@@H]1O[C@H](CO)[C@@H](O)[C@H]1O | Trichomonas vaginalis | resorufin | G3, metronidazole-sensitive | 24 h + 2 h, 2% O2 |  | EC50 | 8540 ± 962 nM |
| CCOC(=O)c1c(N)csc1-c1cn(-c2ccccc2)nc1-c1ccc(C)cc1 | Klebsiella pneumoniae | broth microdilution | clinical urinary isolate | compound gamma-irradiated 10 kGy |  | MIC | 0.123 ± 0.3 µg/mL (≈ 0.305 µM) |
| CC(=NNC(=S)NN=C(C(=NO)c1ccccc1)c1ccccc1)c1ccccc1C | MCF7 | Western blot, item: iNOS |  | IC50 concentration, 24 h | reference: untreated | relative protein level | 0.63 ± 0.06 |
| Nc1ccn(C[C@@H](CO)OCP(=O)(O)O)c(=O)n1 | herpes simplex virus 1 | cytopathic effect | primary human keratinocytes, KOS | 72 h |  | EC50 | 1.4 ± 0.03 µg/mL |
| Nc1ncnc2c1c(-c1ccc(C(F)(F)F)cc1)cn2[C@@H]1O[C@H](CO)[C@@H](O)[C@H]1O | Trichomonas vaginalis | resorufin | G3, metronidazole-sensitive | 24 h + 2 h, 2% O2 |  | EC50 | 180 ± 50 nM |
| COc1cc(C=O)ccc1O | UGT (rat) | 4-MU glucuronidation, inhibitor | rat kidney microsomes |  |  | lowest inhibitory concentration | ≥ 0.1 µM |
| Nc1ncnc2c1c(-c1ccc3ccccc3c1)cn2[C@@H]1O[C@H](CO)C[C@H]1O | Trichomonas vaginalis | resorufin | G3, metronidazole-sensitive | 24 h + 2 h, 2% O2 |  | EC50 | 2050 ± 253 nM |
| COc1ccc(N(C)c2nc(Cl)ccc2[N+](=O)[O-])cc1 | human tumour cell panel | cell growth, SRB |  | range over compounds, cells |  | GI50 | 1550 to 3000 nM |
| Cc1ccc(-c2cn([C@@H]3O[C@H](CO)[C@@H](O)[C@H]3O)c3ncnc(N)c23)cc1 | Trichomonas vaginalis | resorufin | G3, metronidazole-sensitive | 24 h + 2 h, 2% O2 |  | EC50 | 68 ± 9 nM |
| CC(C)C[C@H](NC(=O)[C@H](CCc1ccccc1)NC(=O)CN1CCOCC1)C(=O)N[C@@H](Cc1ccccc1)C(=O)N[C@@H](CC(C)C)C(=O)[C@@]1(C)CO1 | Babesia divergens | parasite growth, parasitemia by blood smear | ex vivo blood culture | 48 h | reference: DMSO | minimum significant inhibitory concentration | ≥ 25 nM |

For quick reference, copied from above:
| Structure (SMILES) | tested on | test | system | conditions | scale | quantity | result |
| --- | --- | --- | --- | --- | --- | --- | --- |
| Cc1ccc(-c2cn([C@@H]3O[C@H](CO)[C@@H](O)[C@H]3O)c3ncnc(N)c23)cc1 | Trichomonas vaginalis | resorufin | G3, metronidazole-sensitive | 24 h + 2 h, 2% O2 |  | EC50 | 68 ± 9 nM |
| CC(C)C[C@H](NC(=O)[C@H](CCc1ccccc1)NC(=O)CN1CCOCC1)C(=O)N[C@@H](Cc1ccccc1)C(=O)N[C@@H](CC(C)C)C(=O)[C@@]1(C)CO1 | Babesia divergens | parasite growth, parasitemia by blood smear | ex vivo blood culture | 48 h | reference: DMSO | minimum significant inhibitory concentration | ≥ 25 nM |
